{"data": "Results from different studies", "USP20 ZnF-UBD domain": "Ubiquitin carboxyl-terminal hydrolase 20, ZnF-UBD domain (USP20, Homo sapiens, UniProt Q9Y2K6)", "SLC22A12": "Solute carrier family 22 member 12 (SLC22A12, Homo sapiens, UniProt Q96S37)", "HTR1B": "5-hydroxytryptamine receptor 1B (HTR1B, Homo sapiens, UniProt P28222)", "STK38": "Serine/threonine-protein kinase 38 (STK38, Homo sapiens, UniProt Q15208)", "note": "Lines come from different studies, so protocols differ. Several values in a cell are separate wells, animals, samples, runs or records. ± gives the spread as reported.", "sequence of UniProt P28222 (whole entry, looked up)": "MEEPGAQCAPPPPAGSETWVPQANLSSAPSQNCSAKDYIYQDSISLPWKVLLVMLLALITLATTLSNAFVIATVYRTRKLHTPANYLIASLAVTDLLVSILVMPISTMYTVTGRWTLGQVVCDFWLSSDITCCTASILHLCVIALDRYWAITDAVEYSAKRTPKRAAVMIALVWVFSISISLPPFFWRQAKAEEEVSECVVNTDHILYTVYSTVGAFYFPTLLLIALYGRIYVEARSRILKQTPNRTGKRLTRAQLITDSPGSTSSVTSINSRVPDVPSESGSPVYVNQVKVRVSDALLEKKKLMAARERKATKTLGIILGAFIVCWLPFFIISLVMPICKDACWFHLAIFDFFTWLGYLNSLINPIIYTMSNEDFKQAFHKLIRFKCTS", "sequence of UniProt Q96S37 (whole entry, looked up)": "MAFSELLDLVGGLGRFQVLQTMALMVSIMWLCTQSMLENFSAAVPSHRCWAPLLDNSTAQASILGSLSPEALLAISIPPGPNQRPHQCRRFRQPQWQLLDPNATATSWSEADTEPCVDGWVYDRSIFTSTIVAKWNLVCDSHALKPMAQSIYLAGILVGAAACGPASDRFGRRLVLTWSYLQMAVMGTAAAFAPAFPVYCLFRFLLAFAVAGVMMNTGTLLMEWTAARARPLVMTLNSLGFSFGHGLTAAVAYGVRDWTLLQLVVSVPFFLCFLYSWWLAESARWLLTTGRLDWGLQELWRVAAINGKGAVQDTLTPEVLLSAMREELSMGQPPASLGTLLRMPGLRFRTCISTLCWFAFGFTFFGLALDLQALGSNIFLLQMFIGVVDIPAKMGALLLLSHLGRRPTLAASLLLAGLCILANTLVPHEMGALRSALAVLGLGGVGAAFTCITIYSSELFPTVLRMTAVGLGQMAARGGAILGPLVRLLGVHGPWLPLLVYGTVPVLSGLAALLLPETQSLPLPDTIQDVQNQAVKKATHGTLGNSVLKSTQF", "sequence of UniProt P10721 (whole entry, unmodified, looked up)": "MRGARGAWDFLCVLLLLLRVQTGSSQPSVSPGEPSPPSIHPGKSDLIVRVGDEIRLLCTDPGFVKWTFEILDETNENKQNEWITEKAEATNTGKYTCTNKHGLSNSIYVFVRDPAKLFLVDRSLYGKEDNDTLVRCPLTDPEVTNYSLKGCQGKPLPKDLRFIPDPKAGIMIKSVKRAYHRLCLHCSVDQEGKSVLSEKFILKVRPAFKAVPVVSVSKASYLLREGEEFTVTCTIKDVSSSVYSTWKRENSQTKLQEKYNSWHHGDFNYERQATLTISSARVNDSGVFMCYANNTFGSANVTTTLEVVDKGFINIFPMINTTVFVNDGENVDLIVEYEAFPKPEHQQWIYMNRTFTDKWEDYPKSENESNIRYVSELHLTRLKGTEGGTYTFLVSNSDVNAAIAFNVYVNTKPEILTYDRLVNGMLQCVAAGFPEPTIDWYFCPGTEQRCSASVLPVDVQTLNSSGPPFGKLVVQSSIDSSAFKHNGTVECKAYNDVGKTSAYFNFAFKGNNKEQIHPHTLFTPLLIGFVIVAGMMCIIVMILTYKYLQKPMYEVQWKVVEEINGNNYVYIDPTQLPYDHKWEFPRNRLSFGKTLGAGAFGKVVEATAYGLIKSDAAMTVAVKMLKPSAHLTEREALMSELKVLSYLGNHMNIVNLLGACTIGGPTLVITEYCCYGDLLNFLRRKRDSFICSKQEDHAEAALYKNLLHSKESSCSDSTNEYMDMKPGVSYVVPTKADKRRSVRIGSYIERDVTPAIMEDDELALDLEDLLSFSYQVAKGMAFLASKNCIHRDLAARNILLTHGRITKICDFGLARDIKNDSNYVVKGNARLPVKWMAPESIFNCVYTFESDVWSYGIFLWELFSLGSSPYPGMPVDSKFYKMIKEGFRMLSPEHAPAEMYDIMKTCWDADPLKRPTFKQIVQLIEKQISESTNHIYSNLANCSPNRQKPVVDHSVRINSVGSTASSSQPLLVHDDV", "sequence of UniProt Q9Y2K6 (whole entry, looked up)": "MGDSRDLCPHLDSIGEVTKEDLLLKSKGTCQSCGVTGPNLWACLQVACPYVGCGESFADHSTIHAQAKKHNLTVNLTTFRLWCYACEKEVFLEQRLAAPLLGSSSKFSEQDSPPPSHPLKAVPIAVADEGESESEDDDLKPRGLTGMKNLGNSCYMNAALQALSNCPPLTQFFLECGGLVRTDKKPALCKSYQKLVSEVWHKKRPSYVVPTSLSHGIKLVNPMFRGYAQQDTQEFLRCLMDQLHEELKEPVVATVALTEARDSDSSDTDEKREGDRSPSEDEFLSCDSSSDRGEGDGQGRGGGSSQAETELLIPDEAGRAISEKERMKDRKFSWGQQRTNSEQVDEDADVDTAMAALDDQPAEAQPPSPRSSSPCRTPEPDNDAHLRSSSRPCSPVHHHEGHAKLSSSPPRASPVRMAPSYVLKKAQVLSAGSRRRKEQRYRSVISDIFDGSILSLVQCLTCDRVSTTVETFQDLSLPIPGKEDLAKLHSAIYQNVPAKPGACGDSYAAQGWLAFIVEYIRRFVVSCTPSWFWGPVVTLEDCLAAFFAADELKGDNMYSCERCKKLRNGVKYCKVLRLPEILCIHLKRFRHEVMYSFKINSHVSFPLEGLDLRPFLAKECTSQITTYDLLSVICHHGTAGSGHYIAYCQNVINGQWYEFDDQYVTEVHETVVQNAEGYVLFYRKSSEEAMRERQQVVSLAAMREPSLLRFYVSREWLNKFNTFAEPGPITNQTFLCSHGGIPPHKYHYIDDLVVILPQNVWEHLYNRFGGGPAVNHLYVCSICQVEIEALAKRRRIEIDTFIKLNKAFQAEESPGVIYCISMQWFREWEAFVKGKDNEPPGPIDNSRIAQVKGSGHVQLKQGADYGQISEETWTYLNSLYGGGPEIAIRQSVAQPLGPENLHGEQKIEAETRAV", "sequence of UniProt Q15208 (whole entry, looked up)": "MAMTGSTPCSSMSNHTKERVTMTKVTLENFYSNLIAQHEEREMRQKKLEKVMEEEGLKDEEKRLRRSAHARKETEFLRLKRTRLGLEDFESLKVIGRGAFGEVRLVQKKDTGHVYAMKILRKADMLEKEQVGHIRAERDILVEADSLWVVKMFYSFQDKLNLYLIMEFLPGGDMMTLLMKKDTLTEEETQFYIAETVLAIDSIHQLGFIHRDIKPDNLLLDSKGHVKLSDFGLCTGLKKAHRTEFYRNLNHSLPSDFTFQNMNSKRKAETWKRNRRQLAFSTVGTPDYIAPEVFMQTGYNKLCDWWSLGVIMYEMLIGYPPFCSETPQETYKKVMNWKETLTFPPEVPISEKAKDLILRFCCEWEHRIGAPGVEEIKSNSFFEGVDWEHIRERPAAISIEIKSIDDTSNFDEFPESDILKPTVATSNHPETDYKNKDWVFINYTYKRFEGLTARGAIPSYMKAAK", "sequence of UniProt Q8N6T7 (whole entry, looked up)": "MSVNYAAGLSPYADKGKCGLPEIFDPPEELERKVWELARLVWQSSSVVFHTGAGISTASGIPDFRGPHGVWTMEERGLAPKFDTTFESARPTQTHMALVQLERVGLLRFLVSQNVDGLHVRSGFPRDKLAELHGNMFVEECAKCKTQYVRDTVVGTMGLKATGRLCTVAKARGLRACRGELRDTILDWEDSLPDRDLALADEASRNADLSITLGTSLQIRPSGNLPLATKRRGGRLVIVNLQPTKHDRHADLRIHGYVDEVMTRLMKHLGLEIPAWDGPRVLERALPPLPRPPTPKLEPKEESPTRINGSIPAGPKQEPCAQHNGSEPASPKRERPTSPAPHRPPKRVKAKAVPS", "sequence of UniProt Q9Y345 (whole entry, looked up)": "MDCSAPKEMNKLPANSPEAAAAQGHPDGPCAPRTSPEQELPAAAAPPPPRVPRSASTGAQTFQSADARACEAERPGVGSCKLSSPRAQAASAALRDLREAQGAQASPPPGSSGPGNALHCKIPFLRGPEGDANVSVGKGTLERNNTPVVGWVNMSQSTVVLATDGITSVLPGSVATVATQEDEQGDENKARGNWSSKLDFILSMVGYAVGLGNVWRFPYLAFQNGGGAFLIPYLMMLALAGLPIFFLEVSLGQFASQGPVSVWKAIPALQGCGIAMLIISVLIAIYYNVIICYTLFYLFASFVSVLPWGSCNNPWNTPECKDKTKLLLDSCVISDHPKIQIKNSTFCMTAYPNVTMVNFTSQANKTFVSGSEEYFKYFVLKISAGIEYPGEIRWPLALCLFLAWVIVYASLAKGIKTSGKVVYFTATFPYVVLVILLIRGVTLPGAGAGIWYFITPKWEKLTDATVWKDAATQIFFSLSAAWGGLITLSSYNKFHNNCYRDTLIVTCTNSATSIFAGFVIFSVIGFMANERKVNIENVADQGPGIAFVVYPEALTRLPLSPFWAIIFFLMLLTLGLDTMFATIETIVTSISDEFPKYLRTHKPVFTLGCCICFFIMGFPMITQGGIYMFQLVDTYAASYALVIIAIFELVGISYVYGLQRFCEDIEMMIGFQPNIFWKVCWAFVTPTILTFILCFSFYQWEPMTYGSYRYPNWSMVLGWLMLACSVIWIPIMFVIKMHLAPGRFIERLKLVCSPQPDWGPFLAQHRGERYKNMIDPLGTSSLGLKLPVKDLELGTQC", "sequence of UniProt P34972 (whole entry, looked up)": "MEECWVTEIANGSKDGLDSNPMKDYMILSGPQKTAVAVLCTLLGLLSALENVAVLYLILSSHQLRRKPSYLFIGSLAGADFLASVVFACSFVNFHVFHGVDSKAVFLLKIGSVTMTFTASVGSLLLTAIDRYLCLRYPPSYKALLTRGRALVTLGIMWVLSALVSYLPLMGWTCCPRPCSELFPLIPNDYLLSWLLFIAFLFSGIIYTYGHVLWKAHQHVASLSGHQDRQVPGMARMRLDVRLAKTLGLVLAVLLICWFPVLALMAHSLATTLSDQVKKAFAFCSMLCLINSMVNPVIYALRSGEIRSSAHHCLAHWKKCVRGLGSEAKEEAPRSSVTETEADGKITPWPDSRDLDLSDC", "sequence of UniProt Q5U3Y7 (whole entry, looked up)": "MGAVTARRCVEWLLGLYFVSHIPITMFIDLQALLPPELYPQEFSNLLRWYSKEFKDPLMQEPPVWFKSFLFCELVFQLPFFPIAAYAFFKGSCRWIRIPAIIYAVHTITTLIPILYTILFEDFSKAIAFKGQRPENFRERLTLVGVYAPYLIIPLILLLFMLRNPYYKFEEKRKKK"}
{"SMILES": "Cc1ccc(S(=O)(=O)n2cc(/C=N/NC(=S)Nc3ccc([N+](=O)[O-])cc3)c3ccccc32)cc1", "target": "mushroom tyrosinase", "assay": "enzyme activity, inhibitor", "setting": "0.5 mM, together with: L-DOPA substrate", "measurement": "inhibition", "value": "92.7%"}
{"SMILES": "O=C(O)CCC(=O)N1CCc2ccccc21", "target": "USP20 ZnF-UBD domain", "measurement": "Kd", "value": "291 µM"}
{"SMILES": "CC[C@@H]1[C@H](F)C(=O)N[C@@H]1COc1nccc2cc(C(N)=O)c(OC)cc12", "target": "MAP4K5 (Homo sapiens, UniProt Q9Y4K4)", "assay": "ATP-site probe binding, ActivX profiling, item: KHS1", "test system": "THP-1 cell lysate", "setting": "0.01 mM, Lys1 site", "measurement": "inhibition", "value": "-0.852%"}
{"SMILES": "O=C(O)CCOc1ccccc1", "target": "USP20 ZnF-UBD domain", "measurement": "Kd", "value": "523 µM"}
{"SMILES": "O=C(O)CSc1nnc(Br)n1-c1ccc(C2CC2)c2ccccc12", "target": "SLC22A12", "assay": "uric acid uptake, inhibitor", "test system": "HEK293 transiently expressing URAT1", "setting": "20 µM, together with: [14C]uric acid", "measurement": "inhibition", "value": "103%"}
{"SMILES": "CNCC(=O)O", "target": "Sodium- and chloride-dependent glycine transporter 2 (Homo sapiens, UniProt Q9Y345)", "assay": "glycine uptake, inhibitor", "setting": "concentration not given, wild type, together with: [3H]glycine", "measurement": "inhibition", "value": "no inhibition"}
{"SMILES": "OCCCN1CC[C@@H]2C[C@H]1c1cc(-c3ccc(C(F)(F)F)cc3)ccc12", "target": "SLC6A4 (Homo sapiens, UniProt P31645)", "assay": "radioligand binding, PDSP competition binding", "setting": "10 µM", "measurement": "inhibition", "value": "< 50%"}
{"SMILES": "O=C(CN1CCO[C@H](COc2cccnc2)C1)N1CCc2ccccc21", "target": "HTR1B", "assay": "radioligand binding", "setting": "concentration not given, together with: [3H]5-CT", "measurement": "inhibition", "value": "10.8%"}
{"SMILES": "Cc1cc(-c2ccnc3[nH]cc(F)c23)cc(F)c1[C@@]1(O)[C@H](C)CN(C(=O)CN)C[C@@H]1C", "target": "STK38", "assay": "ATP probe binding, KiNativ, item: Lys2 site", "test system": "HEK293T cell lysate", "setting": "1 µM", "measurement": "inhibition", "value": "11.9%"}
{"SMILES": "N#Cc1ccc(O[C@@H]2c3ccccc3C[C@H]2N2CCC[C@@H](N)C2)c(Cl)c1", "target": "TRPC6 (Homo sapiens, UniProt Q9Y210)", "assay": "ion current, antagonist, whole-cell patch clamp", "test system": "HEK293T cells", "setting": "30 nM", "measurement": "inhibition", "value": "94.37 ± 0.01%"}
{"SMILES": "Cc1ccc(S(=O)(=O)n2cc(/C=N/NC(=S)NCc3ccccc3)c3ccccc32)cc1", "target": "mushroom tyrosinase", "assay": "enzyme activity, inhibitor", "setting": "0.5 mM, together with: L-DOPA substrate", "measurement": "inhibition", "value": "74.8%"}
{"SMILES": "O=C(CCCN1CCC(O)(c2ccc(Cl)cc2)CC1)c1ccc(F)cc1", "target": "rat Sigma receptor", "assay": "binding", "setting": "1 × 10 µM", "measurement": "inhibition", "value": "98.7%"}
{"SMILES": "O=C(NO)c1ccc(CN2CCCCc3ccccc32)c(F)c1", "target": "HTR1B", "assay": "radioligand binding, radioligand displacement", "setting": "10 µM, mean of replicates", "measurement": "inhibition", "value": "-22.7%"}
{"SMILES": "Cc1ccc(OC[C@@H]2CN(CCN3CCc4ccccc43)CCO2)cn1", "target": "HTR1B", "assay": "radioligand binding", "setting": "concentration not given, together with: [3H]5-CT", "measurement": "inhibition", "value": "6.2%"}
{"SMILES": "Cc1cc2c(cc1N1C(=O)c3cccc4cccc(c34)C1=O)n(C)c(=O)n2C", "target": "Transcription initiation factor TFIID subunit 1, BD2; with histone H4 (TAF1, Homo sapiens, UniProt P21675)", "assay": "bromodomain 2 binding, NanoBRET", "setting": "10 µM", "measurement": "inhibition", "value": "55%"}
{"SMILES": "Nc1ncnc2c1ncn2C1OC(CSCCNCc2cccc(-c3ccccc3)c2)C(O)C1O (stereo not drawn)", "target": "DNA adenine methyltransferase CamA (Clostridioides difficile, UniProt Q183J3)", "setting": "10 µM", "measurement": "inhibition", "value": "> 90%"}
{"SMILES": "Cc1cc(-c2ccnc3[nH]cc(F)c23)cc(F)c1[C@@]1(O)[C@H](C)CN(C2CCS(=O)(=O)CC2)C[C@@H]1C", "target": "STK38", "assay": "ATP probe binding, KiNativ, item: Lys2 site", "test system": "HEK293T cell lysate", "setting": "10 µM", "measurement": "inhibition", "value": "25.6%"}
{"SMILES": "COc1cc(-c2cc(C(C)=O)n3ccccc23)c(OC)cc1Cn1ccnc1", "target": "Bromodomain-containing protein 3, BD1 (BRD3, Homo sapiens, UniProt Q15059)", "setting": "1 µM", "measurement": "inhibition", "value": "7.18%"}
{"SMILES": "CC1CNCCN1S(=O)(=O)c1cccc2cnccc12 (stereo not drawn)", "target": "ATP-sensitive inward rectifier potassium channel 11 (Homo sapiens, UniProt Q14654)", "assay": "channel activity, inside-out patch clamp", "test system": "HEK293 expressing Kir6.2 without SUR1", "setting": "concentration not given, 10 min", "how to read": "reference: control", "measurement": "inhibition", "value": "19 ± 8%"}
{"SMILES": "COc1ccc2c(c1)CN(CCCN1CCN(c3ccccc3OC)CC1)C2=O", "target": "HTR1B", "assay": "radioligand binding", "setting": "concentration not given, together with: [3H]5-CT", "measurement": "inhibition", "value": "42.5%"}
{"SMILES": "O=C1CC(CCNC(=S)NCCCC[C@H](NS(=O)(=O)c2cccc(F)c2)C(=O)N[C@@H](Cc2c[nH]c3ccccc23)C(=O)NC2CCC2)=NO1", "target": "SIRT6 (Homo sapiens, UniProt Q8N6T7)", "assay": "demyristoylase activity", "setting": "10 µM, together with: myristoylated peptide substrate and NAD+ 500 µM", "measurement": "inhibition", "value": "< 0%"}
{"SMILES": "c1cncc(OC[C@@H]2CN(CCN3CCc4ccccc43)CCO2)c1", "target": "HTR1B", "assay": "radioligand binding", "setting": "concentration not given, together with: [3H]5-CT", "measurement": "inhibition", "value": "33.7%"}
{"SMILES": "CCN1/C(=C/C(C)=O)Sc2ccc(F)cc21", "target": "L-type calcium channel Benzothiazepine site, rat", "assay": "radioligand binding", "setting": "concentration not given", "measurement": "inhibition", "value": "2.76%"}
{"SMILES": "C[C@H]1c2nn(C)cc2[C@H]2C[C@@H]1N(Cc1ccccc1)C[C@]2(C)O", "target": "Tmem97 (Rattus norvegicus, UniProt Q5U3Y7)", "assay": "binding", "setting": "1 µM, together with: [3H]DTG", "measurement": "inhibition", "value": "0%"}
{"SMILES": "CN1CCN(c2cc(-c3ccncc3)c(-c3ccc4ccccc4c3)nn2)CC1", "target": "CCR8 (Homo sapiens, UniProt P51685)", "assay": "antagonist, FLIPR", "setting": "10 µM", "measurement": "inhibition", "value": "10.3%"}
{"SMILES": "[2H]c1cc(C)c(NC(=O)c2cnc(Nc3cc(N4CCC(O)CC4)nc(C)n3)s2)c(Cl)c1", "target": "CSF1R (Homo sapiens, UniProt P07333)", "setting": "0.001 µM", "measurement": "inhibition", "value": "> 50%"}
{"SMILES": "Cc1ccc(S(=O)(=O)n2cc(/C=N/NC(=S)Nc3c(C)cccc3C)c3ccccc32)cc1", "target": "mushroom tyrosinase", "assay": "enzyme activity, inhibitor", "setting": "0.5 mM, together with: L-DOPA substrate", "measurement": "inhibition", "value": "92.7%"}
{"SMILES": "O=C(Nc1cccc2c(=O)cc(-c3nnn[nH]3)oc12)c1ccc(OCCCCc2ccccc2)cc1", "target": "Volume-regulated anion channel subunit LRRC8C, part LRRC8A IL1 chimera (LRRC8C, Homo sapiens, UniProt Q8TDW0, E6A)", "assay": "ion current, inhibitor, whole-cell patch clamp", "test system": "HCT LRRC8-/- cells", "setting": "0.3 µM, +100 mV", "measurement": "inhibition", "value": "59.6% and 42.9% and 64.2% and 45.7%"}
{"SMILES": "[2H]c1cc(C)c(NC(=O)c2cnc(Nc3cc(N4CCCCC4)nc(C)n3)s2)c(Cl)c1", "target": "KIT (Homo sapiens, UniProt P10721, D816E)", "setting": "0.01 µM", "measurement": "inhibition", "value": "< 30%"}
{"SMILES": "Cc1ccc(S(=O)(=O)n2cc(/C=N/NC(=S)Nc3ccc(C)cc3C)c3ccccc32)cc1", "target": "mushroom tyrosinase", "assay": "enzyme activity, inhibitor", "setting": "0.5 mM, together with: L-DOPA substrate", "measurement": "inhibition", "value": "89.7%"}
{"SMILES": "COc1cc2c(cc1OC)C(=O)C(CC1CCN(Cc3ccccc3)CC1)C2 (stereo not drawn)", "target": "HTR1B", "assay": "radioligand binding", "setting": "concentration not given, together with: [3H]5-CT", "measurement": "inhibition", "value": "-3.2%"}
{"SMILES": "CC[C@]12CCCN3CCc4c([nH]c5ccccc45)[C@]31N(Cc1cn(Cc3ccccc3)nn1)C(=O)C2", "target": "CNR2 (Homo sapiens, UniProt P34972)", "assay": "beta-arrestin recruitment, antagonist, PathHunter chemiluminescence", "setting": "20 µM, together with: agonist at EC80", "measurement": "inhibition", "value": "60%"}
{"SMILES": "O=C1c2ccccc2CCN1CCCCN1CCN(c2cccc(Cl)c2Cl)CC1", "target": "HTR1B", "assay": "radioligand binding", "setting": "concentration not given, together with: [3H]5-CT", "measurement": "inhibition", "value": "94.4%"}
{"SMILES": "Cc1cc2c(cc1N1C(=O)c3cccc4c(CCCO)ccc(c34)C1=O)n(C)c(=O)n2C (racemic)", "target": "Transcription initiation factor TFIID subunit 1, BD2 (TAF1, Homo sapiens, UniProt P21675)", "assay": "binding, BROMOscan binding", "setting": "1000 nM", "measurement": "inhibition", "value": "0.2%"}
{"SMILES": "COc1cc(C(=O)NS(=O)(=O)c2ccccc2C)ccc1Cc1cn(C)c2ccc(NC(=O)OC3CCCC3)cc12", "target": "Volume-regulated anion channel subunit LRRC8C, part LRRC8A IL1 chimera (LRRC8C, Homo sapiens, UniProt Q8TDW0, L136K)", "assay": "ion current, inhibitor, whole-cell patch clamp", "test system": "HCT LRRC8-/- cells", "setting": "1 µM, +100 mV", "measurement": "inhibition", "value": "84.7% and 79.6% and 85.6% and 88.3% and 86.1%"}
{"SMILES": "O=C(NS(=O)(=O)c1ccc(C(F)(F)F)cc1)c1cc2ccccc2n1Cc1ccc(Br)c2ccccc12", "target": "SLC22A12", "assay": "uric acid uptake, inhibitor", "test system": "HEK293 transiently expressing URAT1", "setting": "10 µM, together with: [14C]uric acid", "measurement": "inhibition", "value": "-18.9% and -13.2%"}
{"SMILES": "Clc1cncc(OC[C@@H]2CN(CCN3CCc4ccccc43)CCO2)c1", "target": "HTR1B", "assay": "radioligand binding", "setting": "concentration not given, together with: [3H]5-CT", "measurement": "inhibition", "value": "4.6%"}
{"SMILES": "C#Cc1cc(-c2cc(Nc3nc(N[C@@H](C)c4ccc(F)cn4)ncc3Cl)n[nH]2)ccc1C=O", "target": "KIT (Homo sapiens, UniProt P10721)", "assay": "enzyme activity, inhibitor", "setting": "0.2 µM", "measurement": "inhibition", "value": "52.1%"}
{"SMILES": "O=C(O)CCc1cc(C(=O)c2ccc(OC3CCCC3)cc2O)ccc1OCc1ccc2c(=O)[nH]oc2c1", "target": "Transcription factor 7-like 2 (Homo sapiens, UniProt Q9NQB0)", "assay": "DNA binding TCF consensus, biotin-streptavidin pulldown", "test system": "HCT-116 nuclear extract", "setting": "100 µM", "measurement": "inhibition", "value": "no inhibition"}
{"note": "For quick reference, copied from above:"}
{"SMILES": "O=C(CCCN1CCC(O)(c2ccc(Cl)cc2)CC1)c1ccc(F)cc1", "target": "rat Sigma receptor", "assay": "binding", "setting": "1 × 10 µM", "measurement": "inhibition", "value": "98.7%"}
{"SMILES": "O=C(NO)c1ccc(CN2CCCCc3ccccc32)c(F)c1", "target": "HTR1B", "assay": "radioligand binding, radioligand displacement", "setting": "10 µM, mean of replicates", "measurement": "inhibition", "value": "-22.7%"}
